Published values of several laboratories.
Protocols differ between the studies behind these lines. “And” joins repeats or separate records; there may be more than shown.
CHUK: Inhibitor of nuclear factor kappa-B kinase subunit alpha (CHUK, Homo sapiens, UniProt O15111)
Voltage-dependent P/Q-type calcium channel subunit alpha-1A: Voltage-dependent P/Q-type calcium channel subunit alpha-1A (Homo sapiens, UniProt O00555)
gag-pol reverse transcriptase: Gag-Pol polyprotein, reverse transcriptase (gag-pol, Human immunodeficiency virus 1, UniProt P03366)
ACTA1 pyrene-labeled: Actin, alpha skeletal muscle, pyrene-labeled (ACTA1, Oryctolagus cuniculus, UniProt P68135)

Under inhibition, `O=C1O[C@H]2[C@@H]3OC(=O)c4cc(O)c(O)c(O)c4-c4c(O)c(O)c5oc(=O)c6c(c(O)c(O)c7oc(=O)c4c5c76)-c4c(cc(O)c(O)c4O)C(=O)OC[C@H]3OC(O)[C@@H]2OC(=O)c2cc(O)c(O)c(O)c2-c2c1cc(O)c(O)c2O` (mixture of isomers) is recorded as “inhibited” (Protein disulfide-isomerase A3 (PDIA3, Homo sapiens, UniProt P30101); di-eosin-GSSG reductase activity; 20 µM, 15 min).
`O=C(Nc1cccnn1)N1CCC(=Cc2cccc(Oc3ccc(C(F)(F)F)cn3)c2)CC1` gave an inhibition of 6% (CHUK; enzyme activity, inhibitor; 50 µM).
The inhibition of `COc1cc2c(c(OC)c1OC)-c1ccc(OC)c(=O)cc1[C@@H](NC(C)=O)CC2` is reported as 5% (Voltage-dependent P/Q-type calcium channel subunit alpha-1A; ion current, antagonist; HEK293; 30 µM).
The inhibition of `CN1CCN(c2cc(-c3ccncc3)c(-c3ccc4ccccc4c3)nn2)CC1` is reported as 31.9% (Mas-related G-protein coupled receptor member X2 (MRGPRX2, Homo sapiens, UniProt Q96LB1); antagonist, FLIPR; 10 µM).
The inhibition of `O=C1CSC(c2c(F)cccc2Cl)N1c1nc(-c2ccc(S(=O)(=O)N3CCCC3)cc2)cs1` (centres unmarked) is reported as 10.6% (gag-pol reverse transcriptase; 4 µM).
`CC(C)CC(=O)OC[C@H]1O[C@@](C#N)(c2ccc3c(N)ncnn23)[C@H](O)[C@@H]1O` gave an inhibition of 14% (Gamma-aminobutyric acid type B receptor subunit 1 (GABBR1, Homo sapiens, UniProt Q9UBS5); 20 µM).
`CO[C@]1([C@@H]2CSC(=O)N2C(=O)c2ccccc2)C[C@H]2C[C@@H](CC[C@H](C)/C=C\C=C\CC/C(C)=C\C(=O)O2)O1` gave an inhibition of 17% (ACTA1 pyrene-labeled; actin polymerization, pyrene actin; 0.1 µM; relative to: vehicle).
`Cc1ncc(C)n2nc(/C=C/c3nc(N4CCCC4)cc(N4CCOCC4)n3)nc12` has an inhibition of 1% (Soluble guanylate cyclase alpha1/beta1 complex (Homo sapiens, UniProt Q02108+Q02153); enzyme activity; 10 µM).
With `CC(C)N1CCC[C@H]1CNC(=O)c1cn(C2CCCC2)c(=O)c2c1c1ccccc1n2C` the inhibition was 5% (KATP potassium channel (human); radioligand binding; 10 µM).
For `Cn1cc(-c2cc(F)cc(N3CCn4c(cc5c4CCCC5)C3=O)c2CO)cc(Nc2ccc(N3CCN(C4COC4)CC3)cn2)c1=O`, the inhibition was -9% (Protein kinase C beta type, isoform beta-I (PRKCB, Homo sapiens, UniProt P05771); kinase activity, inhibitor, SelectScreen kinase profiling; 0.1 µM, together with: ATP at apparent Km).
`NC(=O)CC[C@H](NC(=O)[C@@H]1CCCN1C(=O)[C@H](CCC(N)=O)NC(=O)[C@@H]1CCCN1C(=O)[C@@H](N)Cc1ccc(O)cc1)C(=O)O` gave an inhibition of 67.8% (Dipeptidyl peptidase 4 (DPP4, Homo sapiens, UniProt P27487); inhibitor; 50 µM, 20 min, pH 8.0, 37 °C, together with: Gly-Pro-pNA 500 µM).
`O=C1CSC(c2cccc(Cl)c2Cl)N1c1nc(-c2ccc(S(=O)(=O)N3CCOCC3)cc2)cs1` (centres unmarked) gave an inhibition of 11.6% (gag-pol reverse transcriptase; 4 µM).
`COC(C(=O)N1C(=O)SCC1C1(OC)CC2CC(CCC(C)C=CC=CCCC(C)=CC(=O)O2)O1)c1ccccc1` (centres unmarked) has an inhibition of 13% (ACTA1 pyrene-labeled; actin polymerization, pyrene actin; 1 µM; relative to: vehicle).
With `Nc1ccncc1` the inhibition was 21% (Voltage-dependent P/Q-type calcium channel subunit alpha-1A; antagonist; 10 µM).
`O=C(Nc1cnccc1Cl)N1CCN(Cc2ccc3c(c2)OC(F)(F)O3)CC1` has an inhibition of -5% (Serine/threonine-protein kinase D2 (PRKD2, Homo sapiens, UniProt Q9BZL6); kinase activity, inhibitor; 10 µM, human, together with: MAPKAPK substrate).
For `Cn1cc(-c2cccc(N3CCc4c(sc5c4CC(C)(C)C5)C3=O)c2CO)cc(Nc2ccncn2)c1=O`, the inhibition was 21% (Proto-oncogene tyrosine-protein kinase Src, N1 isoform (SRC, Homo sapiens, UniProt P12931); kinase activity, inhibitor, SelectScreen kinase profiling; 1 µM, together with: ATP at apparent Km).
For `CC[C@H](C)[C@H](NC(=O)[C@@H](NC(=O)[C@H](N)Cc1ccccc1)C(C)C)C(=O)N[C@@H](C)C(N)=O`, the inhibition was 89% (Amyloid-beta precursor protein (APP, Homo sapiens, UniProt P05067); amyloid-beta aggregation, thioflavin T fluorescence; 1.0 µM, 48 h, together with: 2 µM amyloid-beta).
For `COc1cc(Nc2ncc(F)c(Nc3ccc4c(n3)NC(=O)C(C)(C)O4)n2)cc(OC)c1OC`, the inhibition was 69% (RAF proto-oncogene serine/threonine-protein kinase (RAF1, Homo sapiens, UniProt P04049); KINOMEscan; 10 µM).
The inhibition of `O=c1ccc2ccccc2o1` is reported as -2.06% (NMDA receptor; radioligand binding; 10 µM).
`CN(C(=O)n1cnc(-c2ccc[n+]([O-])c2)c1)C1CCCCC1` has an inhibition of 4% (CHUK; enzyme activity; 10 µM).
`C/C1=C/C(=O)O[C@@H]2C[C@@H](CC[C@H](C)/C=C\C=C\CC1)O[C@@](O)([C@@H]1CSC(=O)N1CO)C2` has an inhibition of 35% (ACTA1 pyrene-labeled; actin polymerization, pyrene actin; 0.1 µM; relative to: vehicle).
With `O=C1CSC(c2ccc(Br)cc2)N1c1cccc(S(=O)(=O)Nc2nccs2)c1` (centres unmarked) the inhibition was 11.9% (gag-pol reverse transcriptase; 4 µM).
The inhibition of `CN(CCN1CCC(OC(=O)Nc2ccccc2-c2ccccc2)CC1)C(=O)c1ccc(CN2CCC(C(N)=O)CC2)cc1` is reported as -3% (rat NMDA receptor; radioligand binding; 1 µM, together with: [3H]CGP39653 5.0 nM).
`FC(F)(F)c1cccc(Nc2nc(NCCOc3ccccc3)nc3[nH]cnc23)c1` has an inhibition of -2% and 15% (Protein kinase C beta type (PRKCB, Homo sapiens, UniProt P05771); Z′-LYTE kinase; 5 µM).
With `O=C1CSC(c2c(Cl)cccc2Cl)N1c1nc(-c2ccc(S(=O)(=O)N3CCCC3)cc2)cs1` (centres unmarked) the inhibition was 14.7% (gag-pol reverse transcriptase; 4 µM).
`c1ccc(C(NCCNC(c2ccccc2)c2ccccc2)c2ccccc2)cc1` gave an inhibition of 4% (Ca2+/calmodulin-dependent protein kinase II (rat); Eurofins selectivity panel; 10 µM).
`COc1ccc(N2C(=O)N(c3c(C)cccc3Cl)Cc3cnc(Nc4ccc(C5CCN(C)CC5)cc4OC)nc32)nc1` gave an inhibition of 43% (MAP/microtubule affinity-regulating kinase 4 (MARK4, Homo sapiens, UniProt Q96L34); kinase activity; 0.5 µM).
`O=C1CSC(c2cccc(Cl)c2)N1c1nc(-c2ccc(S(=O)(=O)N3CCOCC3)cc2)cs1` (centres unmarked) gave an inhibition of 72.3% (gag-pol reverse transcriptase; 4 µM).
With `C/C1=C/C(=O)O[C@@H]2C[C@@H](CC[C@H](C)/C=C\C=C\CC1)O[C@@](OC(=O)c1ccccc1)([C@@H]1CSC(=O)N1)C2` the inhibition was 23% (ACTA1 pyrene-labeled; actin polymerization, pyrene actin; 0.1 µM; relative to: vehicle).
With `Cn1cccc1-c1cccnc1` the inhibition was -10.3% (Beta-3 adrenergic receptor (ADRB3, Homo sapiens, UniProt P13945); binding; 50 µM).
The inhibition of `CO[C@]1([C@@H]2CSC(=O)N2C)C[C@H]2C[C@@H](CC[C@H](C)/C=C\C=C\CC/C(C)=C\C(=O)O2)O1` is reported as 11% (ACTA1 pyrene-labeled; actin polymerization, pyrene actin; 0.1 µM; relative to: vehicle).
With `CCN(C)C(=O)Oc1cccc([C@H](C)N(C)C)c1` the inhibition was 7% (Voltage-dependent P/Q-type calcium channel subunit alpha-1A; ion current, antagonist; HEK293; 30 µM).
For `CCN(Cc1ccccc1C(F)(F)F)C(=O)C1CCN(S(=O)(=O)c2ccc3[nH]ncc3c2)CC1`, the inhibition was 8% (rat NMDA receptor; radioligand binding; 10 µM, phencyclidine site).
The inhibition of `O=C1CSC(c2cccc(F)c2)N1c1nc(-c2ccc(S(=O)(=O)N3CCOCC3)cc2)cs1` (centres unmarked) is reported as 3.7% (gag-pol reverse transcriptase; 4 µM).
`C#Cc1n[nH]c2c(-c3cn(C(C)c4ccccn4)c(=O)[nH]c3=O)cc(F)cc12` (centres unmarked) gave an inhibition of 6.9% (5'-AMP-activated protein kinase catalytic subunit alpha-2, with beta1 gamma1 (PRKAA2, Homo sapiens, UniProt P54646); kinase activity, inhibitor; 1 µM).

A few entries again:
The inhibition of `O=c1ccc2ccccc2o1` is reported as -2.06% (NMDA receptor; radioligand binding; 10 µM).
`CN(C(=O)n1cnc(-c2ccc[n+]([O-])c2)c1)C1CCCCC1` has an inhibition of 4% (CHUK; enzyme activity; 10 µM).
`C/C1=C/C(=O)O[C@@H]2C[C@@H](CC[C@H](C)/C=C\C=C\CC1)O[C@@](O)([C@@H]1CSC(=O)N1CO)C2` has an inhibition of 35% (ACTA1 pyrene-labeled; actin polymerization, pyrene actin; 0.1 µM; relative to: vehicle).
With `O=C1CSC(c2ccc(Br)cc2)N1c1cccc(S(=O)(=O)Nc2nccs2)c1` (centres unmarked) the inhibition was 11.9% (gag-pol reverse transcriptase; 4 µM).
The inhibition of `CN(CCN1CCC(OC(=O)Nc2ccccc2-c2ccccc2)CC1)C(=O)c1ccc(CN2CCC(C(N)=O)CC2)cc1` is reported as -3% (rat NMDA receptor; radioligand binding; 1 µM, together with: [3H]CGP39653 5.0 nM).
